Assay results collected from several papers.
Parts stem from different laboratories: compare values within a part only. Positions count from the first letter of the parent shown.

Study 1 — method: protein-binding microarray; form: double-stranded DNA, one strand shown; matrix: in vitro; tested at: 250 nM; notes: 60-bp whole probe; together with: salmon DNA 0.4 mg/ml; reference: random background probes; direction: higher = stronger binding; shared flanks, not repeated: GCCTAGCAC … GTCTTGATTCGCTTGACGCTGCTG
Target: Interferon regulatory factor 7, full length, phosphomimetic (IRF7, Homo sapiens, UniProt Q92985, residues 1-503, S101K/S471D/S472D/S475D/S476D/S477D/S483D/S484D/S487D)
Chain of UniProt Q92985 (whole entry, unmodified, looked up): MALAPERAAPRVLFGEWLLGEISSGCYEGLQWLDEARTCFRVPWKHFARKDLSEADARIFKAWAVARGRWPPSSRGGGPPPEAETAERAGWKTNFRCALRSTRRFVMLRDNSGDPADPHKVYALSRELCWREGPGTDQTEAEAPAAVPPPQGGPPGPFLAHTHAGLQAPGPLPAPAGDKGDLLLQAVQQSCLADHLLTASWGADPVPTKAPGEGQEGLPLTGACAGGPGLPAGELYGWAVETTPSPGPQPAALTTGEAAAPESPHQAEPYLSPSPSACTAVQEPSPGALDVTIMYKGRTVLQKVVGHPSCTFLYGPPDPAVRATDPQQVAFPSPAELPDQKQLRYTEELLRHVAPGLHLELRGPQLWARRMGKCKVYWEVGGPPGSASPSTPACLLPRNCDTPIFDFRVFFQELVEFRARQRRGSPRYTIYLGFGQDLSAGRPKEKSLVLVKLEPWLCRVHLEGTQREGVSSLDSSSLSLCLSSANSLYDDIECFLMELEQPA
`TCATTTCTAATGTTTTTTACTGTGCTA` gave a log fluorescence of 1.7 z-score.
With `TTAGGTTTTGGTATCGGTTAGTGCTAG` the log fluorescence was 2.72 z-score.
The log fluorescence of `TTAGGTTTCGGGTTTCGGTTAGTGCTA` is reported as 12.7 z-score.
The log fluorescence of `GAAGGTTTCGGGACTGGGGACGTGCTA` is reported as 3.54 z-score.
`TCATATATCTTATCCTAACTGTGCTAG` has a log fluorescence of 1.21 z-score.
`TTAGGACTGGGTCTAGGTTAGTGCTAG` has a log fluorescence of -0.244 z-score.
`GACGAACTGGGGATTCGAGACGTGCTA` gave a log fluorescence of -0.0314 z-score.
`TCATAATTTACTTTGGTACTGTGCTAG` has a log fluorescence of 0.445 z-score.
For `GACGGGTTCGACTTTCGGGACGTGCTA`, the log fluorescence was 1.72 z-score.
The log fluorescence of `TTAGGTATCCTCATCCTTTAGTGCTAG` is reported as -0.0969 z-score.
`GACGGACTGCTTATGCTGACGTGCTAG` has a log fluorescence of -0.805 z-score.
The log fluorescence of `GTCGGTCTCCTTATCCTGACGTGCTAG` is reported as 0.734 z-score.
With `TTAGCTTTCAGTATCGATTAGTGCTAG` the log fluorescence was 0.866 z-score.
With `GACGAAATGAGTCTCGAGACGTGCTAG` the log fluorescence was 0.648 z-score.
The log fluorescence of `TCAGTGCTCATTTTTTTACTGTGCTAG` is reported as -0.769 z-score.
For `GACGATGTCAGTTTCGAGACGTGCTAG`, the log fluorescence was 3.31 z-score.
`GTCGATTTCAGTATCGAGACGTGCTAG` has a log fluorescence of 1.24 z-score.
For `CTTTCTTTCCATACTGCAAGGTGCTAG`, the log fluorescence was 2.9 z-score.

Study 2 — method: universal PBM; form: double-stranded DNA, one strand shown; matrix: in vitro; tested at: 600 nM; direction: higher = stronger binding
Target: Sal-like protein 4, full length isoform A (SALL4, Homo sapiens, UniProt Q9UJQ4, residues 1-1053)
Chain of UniProt Q9UJQ4 (whole entry, looked up): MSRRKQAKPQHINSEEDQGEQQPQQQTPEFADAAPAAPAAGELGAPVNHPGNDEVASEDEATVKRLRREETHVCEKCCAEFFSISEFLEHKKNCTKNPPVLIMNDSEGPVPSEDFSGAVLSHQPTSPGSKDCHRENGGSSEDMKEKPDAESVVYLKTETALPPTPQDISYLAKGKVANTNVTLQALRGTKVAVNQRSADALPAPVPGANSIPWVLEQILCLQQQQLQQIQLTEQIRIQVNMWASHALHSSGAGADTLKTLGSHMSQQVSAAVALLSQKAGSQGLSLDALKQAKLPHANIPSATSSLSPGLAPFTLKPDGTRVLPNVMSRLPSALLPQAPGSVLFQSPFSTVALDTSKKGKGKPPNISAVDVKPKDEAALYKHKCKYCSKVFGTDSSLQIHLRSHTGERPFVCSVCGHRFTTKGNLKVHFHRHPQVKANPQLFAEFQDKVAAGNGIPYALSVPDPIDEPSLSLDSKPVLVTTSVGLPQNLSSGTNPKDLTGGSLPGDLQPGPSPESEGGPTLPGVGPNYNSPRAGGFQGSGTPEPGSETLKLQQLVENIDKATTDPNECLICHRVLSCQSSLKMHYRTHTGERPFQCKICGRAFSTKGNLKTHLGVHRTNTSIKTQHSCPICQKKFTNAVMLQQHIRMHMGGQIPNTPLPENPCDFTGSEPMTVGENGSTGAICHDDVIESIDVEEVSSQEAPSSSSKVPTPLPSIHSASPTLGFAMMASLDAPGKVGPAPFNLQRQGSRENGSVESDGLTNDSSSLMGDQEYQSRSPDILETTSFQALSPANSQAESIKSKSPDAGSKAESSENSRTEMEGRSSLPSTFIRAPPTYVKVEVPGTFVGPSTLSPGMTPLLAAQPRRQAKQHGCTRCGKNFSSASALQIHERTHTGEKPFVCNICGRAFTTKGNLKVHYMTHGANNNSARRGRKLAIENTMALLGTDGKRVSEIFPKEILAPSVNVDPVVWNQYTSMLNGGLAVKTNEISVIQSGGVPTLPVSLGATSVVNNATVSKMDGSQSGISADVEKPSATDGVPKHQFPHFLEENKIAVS
Notes: 8-mer, flanks averaged, mean of replicates
`CGCGAGTA` has an E-score of -0.0107.
`AGAAGTGC` has an E-score of -0.214.
The E-score of `CTTGACAA` is reported as 0.127.
`TAAACTAA` gave an E-score of 0.309.
With `AGGTGTCA` the E-score was 0.0592.
With `AGGCCCTC` the E-score was -0.309.
`ATGCCAGC` gave an E-score of -0.206.
For `GAACCCCA`, the E-score was -0.236.
`CTCCGGCA` gave an E-score of -0.213.
With `AGTTCTAC` the E-score was 0.0444.
With `CGAATTTA` the E-score was 0.164.
For `AGGGTACG`, the E-score was -0.0785.
The E-score of `AGAAAGAA` is reported as 0.209.
For `CCCTCTCC`, the E-score was -0.283.
The E-score of `GACTGGAA` is reported as -0.0817.
For `CTGTTTCA`, the E-score was 0.0542.
`ATTTAACC` has an E-score of 0.171.
`CCGGCTAA` gave an E-score of -0.153.

Study 3 — target: CCNE2, cyclin fold, Cln2 fusion (human); method: yeast growth competition, sequencing; matrix: yeast; notes: weak parent motif; reference: not given; direction: higher = stronger binding
Parent: HIRA docking peptide (human); SLSKRKLELEVET; partner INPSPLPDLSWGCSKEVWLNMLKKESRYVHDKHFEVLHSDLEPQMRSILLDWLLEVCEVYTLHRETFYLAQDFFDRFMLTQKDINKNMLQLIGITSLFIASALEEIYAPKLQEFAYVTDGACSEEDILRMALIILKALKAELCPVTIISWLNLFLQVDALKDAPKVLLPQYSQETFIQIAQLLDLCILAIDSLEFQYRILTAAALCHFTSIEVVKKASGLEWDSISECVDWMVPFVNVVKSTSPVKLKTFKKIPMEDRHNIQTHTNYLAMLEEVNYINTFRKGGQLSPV
Under “normalised enrichment score”, `R5K` is recorded as 0.135.
For `L2A`, “normalised enrichment score” read -0.209.
`R5K L9F`: “normalised enrichment score” -0.103.
For `K6A`, “normalised enrichment score” read 0.476.
`V11A`: “normalised enrichment score” 0.544.
`R5A`: “normalised enrichment score” -0.668.
Under “normalised enrichment score”, `S3A` is recorded as -0.836.
`T13A`: “normalised enrichment score” 0.324.
Under “normalised enrichment score”, `R5A L7A` is recorded as -0.257.
Under “normalised enrichment score”, `L7A` is recorded as -0.752.

Study 4 — method: competition protein-binding microarray; form: double-stranded DNA, one strand shown; matrix: in vitro; tested at: 2 µM; together with: Pho4 competitor, 0.05 µM; direction: higher = stronger binding
Target: Centromere-binding protein 1, full length, His-tagged (CBF1, Saccharomyces cerevisiae, UniProt P17106, residues 1-351)
Chain of UniProt P17106 (whole entry, looked up): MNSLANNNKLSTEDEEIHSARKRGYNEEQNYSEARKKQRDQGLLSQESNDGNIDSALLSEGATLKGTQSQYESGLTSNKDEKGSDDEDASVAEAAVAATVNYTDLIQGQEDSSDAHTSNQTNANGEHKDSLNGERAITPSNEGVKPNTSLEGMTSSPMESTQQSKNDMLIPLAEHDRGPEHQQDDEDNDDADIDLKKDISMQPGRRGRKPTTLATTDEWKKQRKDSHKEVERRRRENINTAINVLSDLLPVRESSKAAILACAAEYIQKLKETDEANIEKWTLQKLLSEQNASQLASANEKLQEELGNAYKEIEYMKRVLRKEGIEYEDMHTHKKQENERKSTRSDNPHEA
Notes: whole 60-bp probe, lowest competitor level
With `GTCTTGTCTCATTTTCACGTGGTGTTCCCCACTTCAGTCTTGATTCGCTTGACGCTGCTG` the fluorescence intensity was 840 a.u.
For `CTTTCCCGATCTTGAATAGTGGGTGTAGCACATTTGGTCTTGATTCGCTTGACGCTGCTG`, the fluorescence intensity was 72.1 a.u.
`CAAGGCTCTTCAAACCATGTGACAGTAAACTTCGCAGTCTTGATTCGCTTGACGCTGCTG` gave a fluorescence intensity of 1170 a.u.
For `CGATCGTATTTTCGGCATGTGGATTATCCTTGCACCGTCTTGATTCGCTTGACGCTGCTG`, the fluorescence intensity was 89 a.u.
The fluorescence intensity of `GTCTTGTCTCATTTTCACGTGCTATTCCCCACTTCAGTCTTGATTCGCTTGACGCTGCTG` is reported as 1020 a.u.
The fluorescence intensity of `GTAGTCCTCTTTCGTCACGTCAAAATTTCAGATCCTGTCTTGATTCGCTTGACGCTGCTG` is reported as 87.8 a.u.
`AAATATTAGGGACAGTGCGTGCCGACCCATAAGTTGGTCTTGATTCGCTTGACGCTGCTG` gave a fluorescence intensity of 74.5 a.u.
`AAATTACTAAGTTGACTGGTGGGTGACGCCGTATGAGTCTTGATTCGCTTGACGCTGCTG` gave a fluorescence intensity of 70.7 a.u.
With `TCTCTCATTATTCCCACCGTGTCCTCAATCTCTTGTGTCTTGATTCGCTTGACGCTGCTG` the fluorescence intensity was 56.5 a.u.
`TGGGTACAAAGCAGTGTCGTGCTTTTCCAAGGCATCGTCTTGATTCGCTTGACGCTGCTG` gave a fluorescence intensity of 64.6 a.u.
With `TCATCCAAGTCAGGCCTCGTGAAAAAGAATTCTACTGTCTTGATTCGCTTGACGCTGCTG` the fluorescence intensity was 158 a.u.
`CGAAAGAAAGCGAGTCACGATAACGGTGAGGTGATTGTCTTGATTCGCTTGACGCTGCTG` has a fluorescence intensity of 106 a.u.
The fluorescence intensity of `TTTCCGCGATGCAGCACCGTGCGGAGAGATCCCAATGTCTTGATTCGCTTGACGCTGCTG` is reported as 49.7 a.u.
`GATAGACGAGAAGGACACATGGAGGATTTGACAGGCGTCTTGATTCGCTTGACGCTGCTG` gave a fluorescence intensity of 76.5 a.u.
`CTGGTCCTTCTTTATCACATGTCTTCATGGCTTTCAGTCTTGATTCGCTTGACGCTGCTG` has a fluorescence intensity of 636 a.u.
`TGCGCAACAACTTGTTCCGTGGGTGTATGTCTAGAAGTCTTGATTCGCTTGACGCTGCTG` gave a fluorescence intensity of 65.5 a.u.
With `TTTCGATGGTTAGGCTTCGTGGGTAAAAAGTCGAGCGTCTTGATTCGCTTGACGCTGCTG` the fluorescence intensity was 68.2 a.u.
`TGCGCAACAACTTGGTAGGTGGGTGTATGTCTAGAAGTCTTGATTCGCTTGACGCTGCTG` gave a fluorescence intensity of 66.9 a.u.
The fluorescence intensity of `AGGTTGATGAAGAAGGACGTGCTTTCCCAGTTGAGTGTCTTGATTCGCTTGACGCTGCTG` is reported as 70.2 a.u.
For `GCCAGGGATCCTCACCACGTCGCCGTCCTGTAATCCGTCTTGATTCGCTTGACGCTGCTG`, the fluorescence intensity was 57.4 a.u.
For `CTTCTGTAAATTTTTCACGTGCATTGACGCGCCCCGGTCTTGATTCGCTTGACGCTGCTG`, the fluorescence intensity was 879 a.u.
The fluorescence intensity of `GTCTTGTCTCATTTTCACGTGACATTCCCCACTTCAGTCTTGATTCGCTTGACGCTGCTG` is reported as 3890 a.u.
With `ACCTACGAGTCCGGCCACGTGCGATCCGTAGCCATTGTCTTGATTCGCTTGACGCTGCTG` the fluorescence intensity was 682 a.u.
For `TTTGATCTGGTCTCAAACGTGTATCTGTGGGGGGTAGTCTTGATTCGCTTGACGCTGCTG`, the fluorescence intensity was 121 a.u.

Study 5 — method: protein binding microarray; form: double-stranded DNA, one strand shown; matrix: in vitro; tested at: not given; reference: not given; direction: higher = stronger binding
Target: Histone acetyltransferase KAT6A, both winged helices, GST fusion (KAT6A, Homo sapiens, UniProt Q92794, residues 1-181)
Notes: 8-mer, flanks averaged, mean of 2 arrays, mostly near background
Target sequence (chain): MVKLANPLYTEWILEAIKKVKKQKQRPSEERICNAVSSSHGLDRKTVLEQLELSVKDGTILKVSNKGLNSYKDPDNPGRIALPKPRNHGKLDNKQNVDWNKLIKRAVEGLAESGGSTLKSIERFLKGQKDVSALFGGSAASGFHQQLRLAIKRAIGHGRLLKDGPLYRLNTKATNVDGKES
With `TACATCCA` the E-score was -0.204.
With `GACGGCGA` the E-score was 0.195.
With `ATTTCATA` the E-score was -0.0757.
`CTGCGAGC` gave an E-score of -0.0162.
The E-score of `AACAATGA` is reported as -0.0311.
With `GCCACGCC` the E-score was 0.0432.
With `CATGTCCC` the E-score was 0.0657.
`ACGCTCAA` has an E-score of 0.0582.
`CCAGCAAC` has an E-score of -0.153.
`ATTGTCCC` gave an E-score of 0.034.
For `AATTAATC`, the E-score was -0.0334.
For `ACTCTTGA`, the E-score was -0.173.
For `CGCCCAGC`, the E-score was 0.106.
`GGGGACAA` has an E-score of -0.0344.
With `ATTTCTGA` the E-score was -0.123.
`GACGTCTA` has an E-score of -0.0697.
The E-score of `GACGTATA` is reported as -0.0194.
The E-score of `AGTCGTTC` is reported as -0.0947.
`AATGTTCA` has an E-score of -0.00888.
For `ACCCTCTA`, the E-score was -0.251.
With `GGTCCCCA` the E-score was -0.0565.
